# Measurements from different studies.
# Every numbered part comes from another study and shows a few of its results, in no order.
# Sequence of UniProt P50750 (whole entry, looked up): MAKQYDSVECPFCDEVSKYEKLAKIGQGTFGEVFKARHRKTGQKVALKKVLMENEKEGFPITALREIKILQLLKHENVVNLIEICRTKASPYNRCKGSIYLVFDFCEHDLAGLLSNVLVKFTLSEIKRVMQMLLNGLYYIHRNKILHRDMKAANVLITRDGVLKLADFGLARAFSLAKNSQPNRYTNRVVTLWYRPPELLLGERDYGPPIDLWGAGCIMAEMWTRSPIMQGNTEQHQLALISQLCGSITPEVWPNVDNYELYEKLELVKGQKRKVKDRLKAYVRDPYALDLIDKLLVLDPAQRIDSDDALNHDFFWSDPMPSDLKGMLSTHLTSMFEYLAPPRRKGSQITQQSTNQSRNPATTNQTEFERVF
# Sequence of UniProt P51812 (whole entry, looked up): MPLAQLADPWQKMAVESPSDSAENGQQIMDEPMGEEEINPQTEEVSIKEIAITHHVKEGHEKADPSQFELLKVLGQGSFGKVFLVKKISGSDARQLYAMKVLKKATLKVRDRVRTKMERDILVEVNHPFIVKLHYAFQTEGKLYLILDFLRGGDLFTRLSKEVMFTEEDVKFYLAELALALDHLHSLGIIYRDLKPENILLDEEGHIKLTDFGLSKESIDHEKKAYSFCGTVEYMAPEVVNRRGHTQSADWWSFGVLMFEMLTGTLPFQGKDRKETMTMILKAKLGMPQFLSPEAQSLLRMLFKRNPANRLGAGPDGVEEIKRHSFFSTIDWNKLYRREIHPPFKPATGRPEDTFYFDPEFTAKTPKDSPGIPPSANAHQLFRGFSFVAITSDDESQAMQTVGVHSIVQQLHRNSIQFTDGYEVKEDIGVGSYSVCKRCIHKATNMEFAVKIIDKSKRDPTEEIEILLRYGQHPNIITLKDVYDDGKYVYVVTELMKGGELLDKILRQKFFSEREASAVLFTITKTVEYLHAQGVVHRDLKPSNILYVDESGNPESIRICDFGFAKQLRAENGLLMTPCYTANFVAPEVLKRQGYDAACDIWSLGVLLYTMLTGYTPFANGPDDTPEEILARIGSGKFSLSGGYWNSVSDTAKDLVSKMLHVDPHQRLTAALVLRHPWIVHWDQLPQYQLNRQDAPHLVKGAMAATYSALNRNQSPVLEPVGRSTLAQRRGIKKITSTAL
# Sequence of UniProt P21802 (whole entry, looked up): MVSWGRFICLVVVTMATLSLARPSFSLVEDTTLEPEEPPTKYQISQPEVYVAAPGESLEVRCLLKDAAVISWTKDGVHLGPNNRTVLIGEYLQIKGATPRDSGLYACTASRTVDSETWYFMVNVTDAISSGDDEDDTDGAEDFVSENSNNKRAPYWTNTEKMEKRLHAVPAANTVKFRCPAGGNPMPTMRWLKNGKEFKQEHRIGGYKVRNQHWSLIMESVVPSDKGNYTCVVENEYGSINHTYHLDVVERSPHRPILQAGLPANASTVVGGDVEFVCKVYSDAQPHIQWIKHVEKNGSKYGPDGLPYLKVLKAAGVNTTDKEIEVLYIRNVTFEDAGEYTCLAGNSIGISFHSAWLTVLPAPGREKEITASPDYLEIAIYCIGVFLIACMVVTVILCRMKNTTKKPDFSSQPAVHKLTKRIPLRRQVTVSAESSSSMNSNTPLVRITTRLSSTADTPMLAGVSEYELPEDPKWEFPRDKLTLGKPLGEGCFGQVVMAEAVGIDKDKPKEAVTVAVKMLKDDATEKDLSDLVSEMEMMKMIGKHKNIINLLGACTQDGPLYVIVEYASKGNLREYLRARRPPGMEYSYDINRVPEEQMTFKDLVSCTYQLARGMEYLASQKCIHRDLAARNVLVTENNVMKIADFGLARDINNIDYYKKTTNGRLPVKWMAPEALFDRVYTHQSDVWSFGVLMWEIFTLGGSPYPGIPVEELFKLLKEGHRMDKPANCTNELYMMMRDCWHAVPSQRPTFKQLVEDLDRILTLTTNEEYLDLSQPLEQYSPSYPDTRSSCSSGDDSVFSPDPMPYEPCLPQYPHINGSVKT
# Sequence of UniProt Q7KZI7 (whole entry, looked up): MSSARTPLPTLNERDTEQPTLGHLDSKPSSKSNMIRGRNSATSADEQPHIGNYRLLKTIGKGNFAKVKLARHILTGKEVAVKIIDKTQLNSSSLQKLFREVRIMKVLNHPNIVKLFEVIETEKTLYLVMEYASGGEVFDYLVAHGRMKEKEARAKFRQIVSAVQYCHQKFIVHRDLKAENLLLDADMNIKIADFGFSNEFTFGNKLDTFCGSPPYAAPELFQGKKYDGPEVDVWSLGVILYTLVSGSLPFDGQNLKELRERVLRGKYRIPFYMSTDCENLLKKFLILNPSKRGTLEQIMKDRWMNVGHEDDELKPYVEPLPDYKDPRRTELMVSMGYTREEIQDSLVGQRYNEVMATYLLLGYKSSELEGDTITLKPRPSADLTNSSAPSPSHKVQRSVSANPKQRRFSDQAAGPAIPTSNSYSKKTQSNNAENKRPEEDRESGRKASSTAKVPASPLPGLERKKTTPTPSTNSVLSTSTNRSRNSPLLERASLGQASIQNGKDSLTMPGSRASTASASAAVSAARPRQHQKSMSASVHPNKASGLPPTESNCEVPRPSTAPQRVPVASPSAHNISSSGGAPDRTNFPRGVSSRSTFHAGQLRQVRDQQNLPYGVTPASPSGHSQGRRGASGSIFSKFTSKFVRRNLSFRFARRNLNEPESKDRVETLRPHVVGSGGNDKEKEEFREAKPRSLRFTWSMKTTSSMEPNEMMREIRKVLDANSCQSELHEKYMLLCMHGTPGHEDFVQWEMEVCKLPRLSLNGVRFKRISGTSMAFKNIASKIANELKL
# Sequence of UniProt P49761 (whole entry, looked up): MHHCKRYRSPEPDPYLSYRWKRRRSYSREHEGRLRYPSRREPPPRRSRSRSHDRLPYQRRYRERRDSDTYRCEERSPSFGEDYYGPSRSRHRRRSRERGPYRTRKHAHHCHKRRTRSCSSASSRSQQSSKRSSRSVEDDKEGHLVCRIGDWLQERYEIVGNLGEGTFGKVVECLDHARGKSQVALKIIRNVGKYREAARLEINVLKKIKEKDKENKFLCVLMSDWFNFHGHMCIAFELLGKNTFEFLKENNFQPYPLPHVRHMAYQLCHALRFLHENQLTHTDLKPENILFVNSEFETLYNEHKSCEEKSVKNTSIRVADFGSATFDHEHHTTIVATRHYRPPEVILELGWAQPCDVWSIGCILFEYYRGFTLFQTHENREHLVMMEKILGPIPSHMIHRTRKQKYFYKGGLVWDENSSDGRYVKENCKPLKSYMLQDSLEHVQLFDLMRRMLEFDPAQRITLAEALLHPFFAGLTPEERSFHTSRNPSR
# Sequence of UniProt P07947 (whole entry, looked up): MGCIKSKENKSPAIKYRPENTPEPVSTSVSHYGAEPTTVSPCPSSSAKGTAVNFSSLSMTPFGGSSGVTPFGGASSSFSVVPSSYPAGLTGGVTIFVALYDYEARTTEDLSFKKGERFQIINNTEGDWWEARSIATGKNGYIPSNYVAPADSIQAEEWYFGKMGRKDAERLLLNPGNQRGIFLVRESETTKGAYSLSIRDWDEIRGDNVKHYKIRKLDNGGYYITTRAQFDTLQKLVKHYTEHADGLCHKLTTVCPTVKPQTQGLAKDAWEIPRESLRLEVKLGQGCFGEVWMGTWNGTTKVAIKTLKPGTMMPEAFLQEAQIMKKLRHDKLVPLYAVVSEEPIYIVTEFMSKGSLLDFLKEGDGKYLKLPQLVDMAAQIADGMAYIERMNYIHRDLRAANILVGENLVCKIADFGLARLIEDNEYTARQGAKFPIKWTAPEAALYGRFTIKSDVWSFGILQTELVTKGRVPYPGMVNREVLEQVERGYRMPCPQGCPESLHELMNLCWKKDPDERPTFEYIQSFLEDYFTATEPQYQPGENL
# Sequence of UniProt P28482 (whole entry, looked up): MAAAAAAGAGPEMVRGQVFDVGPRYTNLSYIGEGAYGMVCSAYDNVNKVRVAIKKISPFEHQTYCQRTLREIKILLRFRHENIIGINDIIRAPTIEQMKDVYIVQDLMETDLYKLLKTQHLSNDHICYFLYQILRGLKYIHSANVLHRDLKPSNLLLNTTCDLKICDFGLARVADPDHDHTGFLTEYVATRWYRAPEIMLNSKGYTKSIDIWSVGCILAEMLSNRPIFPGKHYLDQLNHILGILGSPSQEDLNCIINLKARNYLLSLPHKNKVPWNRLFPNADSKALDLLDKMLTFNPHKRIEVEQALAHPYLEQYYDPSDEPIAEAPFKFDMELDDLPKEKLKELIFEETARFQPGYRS
# Sequence of UniProt Q6P2M8 (whole entry, looked up): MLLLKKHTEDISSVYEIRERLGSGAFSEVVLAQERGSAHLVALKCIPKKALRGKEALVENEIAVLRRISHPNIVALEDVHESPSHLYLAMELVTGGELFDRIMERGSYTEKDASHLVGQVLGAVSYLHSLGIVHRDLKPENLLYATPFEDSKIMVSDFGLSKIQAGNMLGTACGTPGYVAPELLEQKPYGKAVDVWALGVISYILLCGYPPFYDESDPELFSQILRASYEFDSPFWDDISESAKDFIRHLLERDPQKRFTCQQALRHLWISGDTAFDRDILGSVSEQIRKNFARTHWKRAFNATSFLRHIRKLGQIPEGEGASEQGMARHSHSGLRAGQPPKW

# Sample 1
# Cell line: mouse MPNST tumor cells
# Method: high-content nuclear imaging
# Item: cell number
# Tested at: 10 µM
# Time: 12 h
# Setting: mean of 2 replicates
# Relative to: plate mean
# Direction: higher = more cells
Structure (SMILES),nuclei count
CCN[C@H]1C[C@H](C)S(=O)(=O)c2sc(S(N)(=O)=O)cc21,1.32 z-score
O=S(=O)(c1cccc2cnccc12)N1CCNCC1,3.42 z-score
Nc1ccc(S(=O)(=O)Nc2ccnn2-c2ccccc2)cc1,-0.643 z-score
O=c1ncn2nc(Sc3ccc(F)cc3F)ccc2c1-c1c(Cl)cccc1Cl,2.07 z-score
CCCCC[C@H](O)/C=C/[C@H]1[C@H](O)CC(=O)[C@@H]1CCCCCCC(=O)O,-1.13 z-score

# Sample 2
# Structure (SMILES): O=C1CCc2cc(Nc3cc(OC4CCOCC4)c([N+](=O)[O-])cc3Cl)ccc2N1
# Effect on: cell-free assay
# Method: competition with immobilised ligand
# Tested at: 1 µM
target,remaining binding [%]
"Epithelial discoidin domain-containing receptor 1 (DDR1, Homo sapiens, UniProt Q08345)",94
"Ribosomal protein S6 kinase alpha-3, N-terminal kinase domain (RPS6KA3, Homo sapiens, UniProt P51812)",100
"Tyrosine-protein kinase Yes (YES1, Homo sapiens, UniProt P07947)",96
"Protein kinase C delta type (PRKCD, Homo sapiens, UniProt Q05655)",100
"Fibroblast growth factor receptor 2 (FGFR2, Homo sapiens, UniProt P21802)",100

# Sample 3
# Target: Beta-1 adrenergic receptor (ADRB1, Homo sapiens, UniProt P08588)
# Sequence of UniProt P08588 (whole entry, looked up): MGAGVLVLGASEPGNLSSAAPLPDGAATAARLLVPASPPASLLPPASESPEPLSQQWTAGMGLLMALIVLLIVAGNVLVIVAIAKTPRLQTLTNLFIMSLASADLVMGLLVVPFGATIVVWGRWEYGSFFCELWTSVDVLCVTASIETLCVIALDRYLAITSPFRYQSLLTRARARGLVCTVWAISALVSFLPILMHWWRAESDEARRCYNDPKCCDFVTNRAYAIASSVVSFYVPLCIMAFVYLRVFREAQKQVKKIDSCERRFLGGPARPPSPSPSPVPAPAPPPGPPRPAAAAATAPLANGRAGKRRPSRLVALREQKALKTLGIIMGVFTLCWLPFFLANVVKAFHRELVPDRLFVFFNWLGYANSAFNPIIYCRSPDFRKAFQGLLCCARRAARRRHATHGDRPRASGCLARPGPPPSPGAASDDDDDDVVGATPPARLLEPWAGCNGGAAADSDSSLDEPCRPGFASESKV
# Mode: agonist
Compound,EC50 [µM]
Cn1cc(-c2cc(=O)c3ccnc(NC4CCOCC4)c3o2)cn1,≥ 100
COc1ccccc1N1CCN([C@H]2[C@@H]3OC[C@@H](O3)[C@@H](NCc3ccccc3O)[C@@H]2O)CC1,≥ 100
O=C(Nc1ccc([C@@H](O)[C@H]2COCC(=O)N2Cc2ncc[nH]2)cc1)C1CC1,≥ 100
CN(c1ccccc1)c1cc(=O)c2ccnc(Nc3cccnc3)c2o1,≥ 100
N[S+](=O)([O-])c1ccc(CCNCC2(O)CNCCOC2)cc1 (stereo not shown),≥ 100

# Sample 4
# Compound: CC[n+]1c(/C=C/N(C)c2ccccc2)n(-c2ccccc2)c2ccc(-c3nc4ccccc4s3)cc21
# Effect on: enzyme activity
# Mode: inhibitor
# Tested at: 0.5 µM
# Relative to: control
target,remaining activity [%]
"Cyclin-dependent kinase 9, with cyclin K (CDK9, Homo sapiens, UniProt P50750)",106
"Ribosomal protein S6 kinase alpha-4 (RPS6KA4, Homo sapiens, UniProt O75676)",94.6
"Calcium/calmodulin-dependent protein kinase type 1B (PNCK, Homo sapiens, UniProt Q6P2M8)",114
"Serine/threonine-protein kinase MARK2 (MARK2, Homo sapiens, UniProt Q7KZI7)",91.6
"Mitogen-activated protein kinase 14 (MAPK14, Homo sapiens, UniProt Q16539)",94.9
"Dual specificity protein kinase CLK3 (CLK3, Homo sapiens, UniProt P49761)",114
"Tyrosine-protein kinase TXK (TXK, Homo sapiens, UniProt P42681)",107
"Dual specificity protein kinase CLK4 (CLK4, Homo sapiens, UniProt Q9HAZ1)",95.5
"Dual specificity mitogen-activated protein kinase kinase 1 (MAP2K1, Homo sapiens, UniProt Q02750)",93.5
"RAC-beta serine/threonine-protein kinase (AKT2, Homo sapiens, UniProt P31751)",99.6
"Mitogen-activated protein kinase 1 (MAPK1, Homo sapiens, UniProt P28482)",112
"Discoidin domain-containing receptor 2 (DDR2, Homo sapiens, UniProt Q16832)",97.4
"Misshapen-like kinase 1 (MINK1, Homo sapiens, UniProt Q8N4C8)",99

# For quick reference, copied from above (sample 2):
target,remaining binding [%]
"Epithelial discoidin domain-containing receptor 1 (DDR1, Homo sapiens, UniProt Q08345)",94
"Ribosomal protein S6 kinase alpha-3, N-terminal kinase domain (RPS6KA3, Homo sapiens, UniProt P51812)",100
"Tyrosine-protein kinase Yes (YES1, Homo sapiens, UniProt P07947)",96
"Protein kinase C delta type (PRKCD, Homo sapiens, UniProt Q05655)",100
